{"data": "Experimental data gathered from unrelated publications", "note": "Every numbered part comes from another study and shows a few of its results, in no order."}
{"data": "Block 1", "target": "Sal-like protein 4, full length isoform B (SALL4, Homo sapiens, UniProt Q9UJQ4-2, residues 1-616)", "technique": "universal PBM", "molecule type": "double-stranded DNA, one strand shown", "matrix": "in vitro", "concentration": "not given", "setting": "8-mer, flanks averaged, mean of replicates", "reading": "higher = stronger binding"}
{"Strand": "AAGCTGGG", "E-score": -0.122}
{"Strand": "AAAATGTT", "E-score": 0.316}
{"Strand": "ACTGCAGC", "E-score": -0.245}
{"Strand": "CTCACTCC", "E-score": -0.197}
{"Strand": "CTCAGGTC", "E-score": -0.183}
{"Strand": "GATGCCCA", "E-score": 0.0505}
{"Strand": "CCACCTCA", "E-score": -0.139}
{"Strand": "CTGCGGGC", "E-score": -0.341}
{"data": "Block 2", "target": "Phosphate system positive regulatory protein PHO4, full length, GST-tagged (PHO4, Saccharomyces cerevisiae, UniProt P07270, residues 1-312)", "technique": "competition protein-binding microarray", "molecule type": "double-stranded DNA, one strand shown", "matrix": "in vitro", "concentration": "2 µM", "setting": "whole 60-bp probe, lowest competitor level", "together with": "Cbf1 competitor, 0.05 µM", "reading": "higher = stronger binding", "Target sequence (chain)": "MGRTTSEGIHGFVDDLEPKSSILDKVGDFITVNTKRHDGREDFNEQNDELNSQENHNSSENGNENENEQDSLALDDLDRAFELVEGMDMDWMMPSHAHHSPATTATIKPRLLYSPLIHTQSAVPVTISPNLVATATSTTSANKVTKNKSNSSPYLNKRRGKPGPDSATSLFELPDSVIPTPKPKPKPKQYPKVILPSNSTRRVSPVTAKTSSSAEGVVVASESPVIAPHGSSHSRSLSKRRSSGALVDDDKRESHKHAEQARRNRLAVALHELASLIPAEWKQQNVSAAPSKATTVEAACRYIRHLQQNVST"}
{"Strand": "AAATTACTAAGTTGCGGTGTGGGTGACGCCGTATGAGTCTTGATTCGCTTGACGCTGCTG", "fluorescence intensity [a.u.]": 4960}
{"Strand": "AAGAAATTACCGTCGCTCGTGATGGGTTTGCAAAAAGTCTTGATTCGCTTGACGCTGCTG", "fluorescence intensity [a.u.]": 6190}
{"Strand": "CGTAGACTTTTACGTCAGCTGAGAAAGAATATTTGTGTCTTGATTCGCTTGACGCTGCTG", "fluorescence intensity [a.u.]": 2870}
{"Strand": "GTAAGTAATGTACTTCACGTGTGTTCCACTGGTAATGTCTTGATTCGCTTGACGCTGCTG", "fluorescence intensity [a.u.]": 14000}
{"data": "Block 3", "target": "Histone acetyltransferase KAT6A, winged helix 1, GST fusion (KAT6A, Homo sapiens, UniProt Q92794, residues 1-85)", "technique": "protein binding microarray", "molecule type": "double-stranded DNA, one strand shown", "matrix": "in vitro", "concentration": "not given", "setting": "8-mer, flanks averaged, mean of 2 arrays, mostly near background", "relative to": "not given", "reading": "higher = stronger binding", "Construct (chain)": "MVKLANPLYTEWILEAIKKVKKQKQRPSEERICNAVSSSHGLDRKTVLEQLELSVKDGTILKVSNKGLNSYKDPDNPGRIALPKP"}
{"Strand": "CAAACGGC", "E-score": 0.266}
{"Strand": "AACAAGTG", "E-score": -0.111}
{"Strand": "AGCGAGAG", "E-score": -0.00424}
{"Strand": "ACTAGTTA", "E-score": -0.177}
{"Strand": "CACGGTCC", "E-score": 0.0853}
{"Strand": "TCGAGCGA", "E-score": 0.0738}
{"Strand": "GGCTGAAC", "E-score": 0.0673}
{"data": "Further values, each from its own experiment"}
{"Molecule": "PhoQ, residues 284 288 289 292 302 303 TASMAF", "target": "PhoP, residues 12 14 15 18 19 SMASL (Escherichia coli, UniProt P23836)", "assay": "Sort-seq, item: YFP reporter", "test system": "E. coli", "setting": "PhoQ-PhoP variant library, together with: 10 µM Mg2+", "scale": "relative to: high Mg2+ state, higher = stronger signaling", "measurement": "fold induction", "value": 3.59}
{"note": "Excerpt of the above (block 2):"}
{"Strand": "AAGAAATTACCGTCGCTCGTGATGGGTTTGCAAAAAGTCTTGATTCGCTTGACGCTGCTG", "fluorescence intensity [a.u.]": 6190}
{"Strand": "CGTAGACTTTTACGTCAGCTGAGAAAGAATATTTGTGTCTTGATTCGCTTGACGCTGCTG", "fluorescence intensity [a.u.]": 2870}
